Experimental data pooled from the literature.
Lines come from different studies, so protocols differ. ± gives the spread as reported.

CC(C)(NC(=O)O[C@@H]1CN2CCC1CC2)c1csc(-c2ccc(F)cc2)n1 — glucosylceramide median (sample A patients, plasma; oral, 15 mg once daily, week 52, added: imiglucerase): 1.1 µg/mL
NCC(=O)Nc1cncc(-c2nn3c(=O)cc(N4CCNCC4)nc3s2)c1 — inhibition (platelet function, VerifyNow iso-TRAP; human; subcutaneous, 0.11 mg/kg, 15 min): 76%
CCCN1CCC[C@@H]2Cc3n[nH]cc3C[C@H]21 — dose for full substitution (cocaine-appropriate responding, drug discrimination; male rats trained on cocaine; intraperitoneal, AFR, added: cocaine 10 mg/kg training dose): 0.061 to 0.18 mg/kg
C#CCN(C)CCCOc1ccc(Cl)cc1Cl.Cl — startle magnitude (acoustic startle; Sprague-Dawley rat; subcutaneous, 0.3 mg/kg; baseline: vehicle): no effect
COc1cc(-c2cc(=O)c3c(O)cc(O)cc3o2)ccc1O — IC50 (ABTS scavenging, absorbance; 15 min): 87.1 µM
N=C(N)NC(=O)c1nc(-c2cc3ccccc3o2)c(N2CCCCCC2)nc1N — sodium excretion (Sprague-Dawley rat, urine; iv, 1.5 mg/kg, 6 h, added: acetazolamide 25 mg/kg; baseline: acetazolamide alone): no effect
Oc1cc(Cl)c(-c2cc(Cl)ccc2Cl)cc1Cl — arm entries and open-arm distance (elevated plus maze; Sprague-Dawley rat; dose not given): no effect
Oc1ccc2c3c1O[C@H]1c4ncc(-c5ccc(Cl)cc5)cc4C[C@@]4(O)[C@@H](C2)N(CC2CC2)CC[C@]314 — plasma corticosterone (rat; intraperitoneal, 5 mg/kg; baseline: vehicle): no effect
ALWKTMLKKLGTMALHAGKAALGAAADTISQGTQ — terbium leakage (peptide, lipid vesicles; 1 µM, 8 h, pH 7.2, peptide to lipid ratio 0.005, added: 300 mM NaCl): ~80%
CC[C@@H]1NC(C)(C)CO[C@@]1(O)c1cccc(Cl)c1 — AD50 (nicotine antinociception blockade, antagonist, tail-flick test; mouse; 15 min pretreatment, added: nicotine 2.5 mg/kg subcutaneous): 0.004 mg/kg
O=C(O)Cc1ccccc1Nc1c(Cl)cccc1Cl — paw-withdrawal latency (thermal hyperalgesia; Sprague-Dawley rat, male, CFA inflammation; subcutaneous, 30 mg/kg, 2 h): 7.3 ± 2.1 s
Oc1ccc(-c2ccc(Cl)cc2)cc1 — fold change (microarray, item: Pigt mRNA; F344 Big Blue rats, female, liver; dose not given; baseline: corn oil, decrease): 39.4 fold
CCC1CC(N2CCCCC2)CC(CC)N1C(=O)Oc1c(OC)cc(-c2nc(-c3ccccc3)c(-c3cccs3)[nH]2)cc1OC (stereo not drawn) — GFP+ EV release into blood (GFAP-EGFP mice, intrastriatal IL-1β; oral, 10 mg/kg DPTIP equivalent, 30 min before IL-1β, read 4 h after, added: IL-1β): inhibited
C[C@@]12OC(=O)[C@]1([C@@H](O)[C@@H]1C=CCCC1)NC(=O)[C@@H]2CCCl — inhibition (tumour-bearing mice, tumour; intravenous, 0.15 mg/kg twice weekly, three weeks, 3 h after last dose, day 21): 60 to 80%
Cc1cc(O)cc(C)c1C[C@H](N)C(=O)N[C@@H]1CCCc2ccc(Cc3ccc4ccccc4c3)cc21 — antinociception (warm water tail withdrawal; C57BL/6 mice; intraperitoneal, up to 10 mg/kg cumulative): inactive

Repeated from above:
COc1cc(-c2cc(=O)c3c(O)cc(O)cc3o2)ccc1O — IC50 (ABTS scavenging, absorbance; 15 min): 87.1 µM
C[C@@]12OC(=O)[C@]1([C@@H](O)[C@@H]1C=CCCC1)NC(=O)[C@@H]2CCCl — inhibition (tumour-bearing mice, tumour; intravenous, 0.15 mg/kg twice weekly, three weeks, 3 h after last dose, day 21): 60 to 80%
